Assay results from different studies.
Protocols differ between the studies behind these lines. “And” joins repeats or separate records; there may be more than shown. Numbers after ± are the reported error.
POLB I260M: DNA polymerase beta (POLB, Homo sapiens, UniProt P06746, I260M)
POLB: DNA polymerase beta (POLB, Homo sapiens, UniProt P06746)
SCTR: Secretin receptor (SCTR, Homo sapiens, UniProt P47872)
T1: ssRNA FMR1 5' UTR CGG repeat (Homo sapiens); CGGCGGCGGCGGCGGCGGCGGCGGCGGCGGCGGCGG

Structure (SMILES) = Oc1ccc(C2CNCc3sccc32)cc1O (stereo not shown); target = Carbamate kinase (Giardia intestinalis, UniProt A8BB85); assay = enzyme activity, inhibitor, luminescence, ATP detection; test system = Giardia lamblia; quantity = maximal inhibition; value = 87.4%
Structure (SMILES) = Nc1ccc(-c2cccs2)cc1NC(=O)c1ccccc1; target = HDAC1 (Homo sapiens, UniProt Q13547); assay = inhibitor; quantity = ligand efficiency; value = 0.36
Structure (SMILES) = O=C(CCc1cn[nH]c1)N1CCOC(CC(c2ccccc2)c2ccccc2)C1 (stereo not shown); target = Troponin C, slow skeletal and cardiac muscles, with cTnI (TNNC1, Human, UniProt P63316, C35S/C84S/T53C); assay = stopped-flow fluorescence; setting = 50 µM, IAANS-labelled chimera; quantity = Ca2+ dissociation rate; value = 49 ± 0.3 s⁻¹
Structure (SMILES) = Cc1cn([C@H]2C[C@H](O)[C@@H](COP(=O)(O)OP(=O)(O)C(F)(F)P(=O)(O)O)O2)c(=O)[nH]c1=O; target = POLB I260M; assay = substrate, single turnover kinetics; quantity = kpol/Kd; value = 90000 ± 40000 M⁻¹ s⁻¹
Structure (SMILES) = O=c1cc(CCl)[nH]c2c(-c3cccc4ccccc34)c(C(F)(F)F)nn12; target = KCNQ2 (Homo sapiens, UniProt O43526); assay = potassium current, activator, whole-cell patch clamp; test system = CHO, stable; setting = 20 µM; scale = baseline: current before compound; quantity = current fold increase; value = 1.21 ± 0.1
Structure (SMILES) = CCCN(CC(=O)N(CCC)CC(=O)N(CCC)CC(=O)N(CCC)CC(=O)N(CC(N)=O)Cc1cn(CCCNC(=O)CCCOc2cccc(-c3nc4ccc(-c5nc6ccc(N7CCN(C)CC7)cc6[nH]5)cc4[nH]3)c2)nn1)C(=O)CNCc1cn(CCCNC(=O)CCCOc2cccc(-c3nc4ccc(-c5nc6ccc(N7CCN(C)CC7)cc6[nH]5)cc4[nH]3)c2)nn1; target = T1, ssRNA FMR1 5' UTR CGG repeat (Homo sapiens); assay = protein displacement, competitor, TR-FRET; quantity = IC50; value = 20 µM
Structure (SMILES) = Nc1nc2c(ncn2C2CC(O)C(COP(=O)(O)OP(=O)(O)C(F)P(=O)(O)O)O2)c(=O)[nH]1 (mixture of isomers); target = POLB; assay = nucleotide incorporation rate, substrate, single-turnover kinetics; test system = single-nucleotide gapped DNA; setting = 37 °C, wild type, misincorporation, together with: dGTP opposite template A; quantity = kpol; value = 0.006 ± 0.0009 s⁻¹
Structure (SMILES) = CCN(CC)C(=O)c1ccc(O)c(OC)c1; target = Heat shock protein HSP 90-alpha, N-terminal domain (HSP90AA1, Homo sapiens, UniProt P07900); assay = binding, ligand-observed NMR titration; setting = ligand to protein ratio 548; quantity = bound ligand fraction; value = 0.16 mol %
Structure (SMILES) = Nc1nc2c(ncn2[C@H]2C[C@H](O)[C@@H](COP(=O)(O)OP(=O)(O)[C@H](Cl)P(=O)(O)O)O2)c(=O)[nH]1; target = POLB; assay = substrate; setting = opposite dC; scale = baseline: R over S; quantity = stereoselectivity ratio; value = 7
Structure (SMILES) = Cc1cn(C2CC(O)C(COP(=O)(O)OP(=O)(O)C(Cl)P(=O)(O)O)O2)c(=O)[nH]c1=O (mixture of isomers); target = POLB I260M; assay = substrate, single turnover kinetics; quantity = kpol/Kd; value = 60000 ± 20000 M⁻¹ s⁻¹
Structure (SMILES) = CC[C@H](C)[C@H](NC(=O)[C@H](Cc1ccccc1)NC(=O)[C@@H](NC(=O)[C@@H](NC(=O)[C@H](CC(C)C)NC(=O)[C@H](CCCCN)NC(=O)[C@@H](N)CCCCN)[C@@H](C)CC)[C@@H](C)O)C(=O)N[C@@H](CC(C)C)C(=O)N[C@@H](CCCCN)C(=O)N[C@@H](CCCCN)C(=O)N[C@H](C(=O)N[C@@H](CCCNC(=N)N)C(=O)N[C@@H](CCC(=O)O)C(=O)N[C@@H](CCCCN)C(=O)N[C@@H](CCCCN)C(=O)N[C@@H](CCCCN)C(=O)N[C@@H](CCC(=O)O)C(=O)N[C@@H](CS)C(=O)N[C@@H](CC(C)C)C(=O)N[C@H](C(=O)O)C(C)C)[C@@H](C)O; target = voltage-gated sodium channel, mouse; assay = resurgent current, blocker; test system = mouse CA3 neurons; setting = kinetic model; scale = baseline: Kd at -10 mV over -30 mV; quantity = Kd ratio; value = 3 fold
Structure (SMILES) = CCCCCCc1ccc(Oc2ccccc2N)c(O)c1; target = Enoyl-[acyl-carrier-protein] reductase [NADPH] FabI (Staphylococcus aureus, UniProt Q6GI75); assay = enzyme activity, inhibitor, progress curve kinetics; quantity = dissociation rate constant; value = 0.88 h⁻¹
Structure (SMILES) = COc1cccc(-c2cc(C(F)(F)F)nc(NCc3ccccc3)n2)c1; target = SCTR; assay = cAMP, agonist; quantity = Emax; value = 17%
Structure (SMILES) = O=C(NCc1cccc(O)c1)c1cc(Cl)c(C(=O)NC(CNC(=S)Nc2ccc(-c3c4ccc(=O)cc-4oc4cc(O)ccc34)c(C(=O)O)c2)C(=O)O)c(Cl)c1 (stereo not shown); target = Integrin alpha-L/beta-2 (LFA-1) (Homo sapiens, UniProt P05107+P20701); assay = probe dissociation, real-time flow cytometry FRET; test system = live cells; quantity = koff; value = 0.04 ± 0.003 s⁻¹
Structure (SMILES) = COc1ccc(-c2cc(C(F)(F)F)nc(S(=O)(=O)CCCC(=O)Nc3ccc(F)c(Cl)c3)n2)cc1OC; target = SCTR; assay = cAMP, agonist; quantity = Emax; value = 13%
Structure (SMILES) = Nc1nc2c(ncn2[C@H]2C[C@H](O)[C@@H](COP(=O)(O)OP(=O)(O)C(Br)(Br)P(=O)(O)O)O2)c(=O)[nH]1; target = POLB; assay = nucleotide incorporation rate, substrate, single-turnover kinetics; test system = single-nucleotide gapped DNA; setting = 37 °C, wild type, misincorporation, together with: dGTP opposite template A; quantity = kpol; value = 0.0005 ± 0.0001 s⁻¹
Structure (SMILES) = CCCCCCCC/C=C\CCCCCCCC(=O)OC[C@@H]1OCC=C[C@H]1OP(=O)(O)S (stereo partly shown); target = LPAR2 (Homo sapiens, UniProt Q9HBW0); assay = agonist, TGFα shedding; quantity = Emax; value = 28%
Structure (SMILES) = COC1CCC(N(C(=O)C2CCC(C)CC2)c2cc(C3=CCCCC3)sc2C(=O)O)CC1 (stereo not shown); target = Probable UDP-N-acetylglucosamine--peptide N-acetylglucosaminyltransferase SPINDLY, 3 TPR truncation (SPY, Arabidopsis thaliana, UniProt Q96301); assay = inhibitor; setting = 3 to 100 µM, 90 min, together with: GDP-fucose 50 µM; quantity = O-fucosylation; value = inhibited
Structure (SMILES) = Fc1ccc(Nc2nc(NC3CCCCC3)c3ccccc3n2)cc1F; target = ADRB2 (Homo sapiens, UniProt P07550); assay = cAMP ELISA; test system = HEK293, stably expressing target; setting = up to 10 µM; quantity = isoprenaline dose-response, cAMP; value = no effect
Structure (SMILES) = C=C1[C@H](O)CC(=C/C=C2\CCC[C@]3(C)[C@@H]([C@H](C)CCCCO)CC[C@@H]23)C[C@H]1O; target = Vitamin D3 receptor (Rattus norvegicus, UniProt P13053); assay = binding, radioligand competition; scale = baseline: compound over 1α,25-dihydroxyvitamin D3; quantity = Ki ratio; value = 2
Structure (SMILES) = Cc1cc(O)c(=O)c(O)cc1C(=O)N1CCN(C(=O)c2cccc3ccccc23)CC1; target = Ribonuclease H1 (Homo sapiens, UniProt O60930); assay = enzyme activity, inhibitor, FRET heteroduplex cleavage; quantity = maximum inhibition; value = ~95% and 94%
Structure (SMILES) = Oc1c(C(Nc2nccs2)c2ccccc2OCc2ccccc2)ccc2cccnc12 (stereo not shown); target = Genome polyprotein, NS2B-NS3 protease (Dengue virus type 2, UniProt P14340); assay = enzyme activity, inhibitor; setting = no CHAPS, together with: Bz-Nle-Lys-Arg-Arg-AMC substrate; quantity = Hill slope; value = 1.21 ± 0.11
Structure (SMILES) = N#Cc1cc(C(=O)OCC[18F])c(C(F)(F)F)nc1N1CCN(C(=O)Cc2ccccc2)CC1; target = P2Y purinoceptor 12 (P2ry12, Mus musculus, UniProt Q9CPV9); assay = PET; test system = mouse, latent kainate epilepsy, brain; quantity = target to normal ratio; value = 1.14 ± 0.05
Structure (SMILES) = Cc1cc(Nc2ccc(NC(=O)c3ccc(NC(=O)c4ccncc4)cc3)cc2)nc(N)n1; target = DNA (cytosine-5)-methyltransferase 3A, catalytic domain (DNMT3A, Homo sapiens, UniProt Q9Y6K1); assay = enzyme activity, inhibitor, restriction-based fluorescence; setting = concentration not given; quantity = activity class; value = inactive
Structure (SMILES) = CNc1ccccc1C(=O)O[C@H]1C[C@H](n2cnc3c(N)ncnc32)O[C@@H]1COP(=O)(O)OP(=O)(O)O; target = Unconventional myosin-Va (Gallus gallus, UniProt Q02440, D297C/G292C/I296C/S293C/V295G); assay = van't Hoff analysis; setting = together with: 2 mM Mg2+; quantity = ΔH of pocket step; value = -4.4 ± 3.3 kcal/mol
Structure (SMILES) = O=C(CSc1nc(-c2ccccc2)cc(C(F)(F)F)n1)Nc1ccccc1; target = SCTR; assay = increase of tracer binding, TR-FRET; test system = HEK293 membranes; setting = together with: Fluo-Sec 6 nM; quantity = Emax; value = 116 ± 7.4%
Structure (SMILES) = Cc1ccc(NC(=O)CNS(=O)(=O)c2nc(-c3ccc(OC(F)(F)F)cc3)cc(C(F)(F)F)n2)cc1; target = WRN (Homo sapiens, UniProt Q14191); assay = intact protein mass spectrometry; setting = overnight, 4 °C, relative peak abundance, together with: 10-fold compound excess; quantity = dialkylated protein; value = ~25%
Structure (SMILES) = CN1CCC=C(c2cc(F)cc3[nH]ccc23)C1; target = HTR2A (Homo sapiens, UniProt P28223); assay = β-arrestin recruitment, agonist; quantity = Emax; value = 44.6%

Repeated from above:
Structure (SMILES) = Oc1c(C(Nc2nccs2)c2ccccc2OCc2ccccc2)ccc2cccnc12 (stereo not shown); target = Genome polyprotein, NS2B-NS3 protease (Dengue virus type 2, UniProt P14340); assay = enzyme activity, inhibitor; setting = no CHAPS, together with: Bz-Nle-Lys-Arg-Arg-AMC substrate; quantity = Hill slope; value = 1.21 ± 0.11
Structure (SMILES) = CNc1ccccc1C(=O)O[C@H]1C[C@H](n2cnc3c(N)ncnc32)O[C@@H]1COP(=O)(O)OP(=O)(O)O; target = Unconventional myosin-Va (Gallus gallus, UniProt Q02440, D297C/G292C/I296C/S293C/V295G); assay = van't Hoff analysis; setting = together with: 2 mM Mg2+; quantity = ΔH of pocket step; value = -4.4 ± 3.3 kcal/mol
Structure (SMILES) = CCCCCCc1ccc(Oc2ccccc2N)c(O)c1; target = Enoyl-[acyl-carrier-protein] reductase [NADPH] FabI (Staphylococcus aureus, UniProt Q6GI75); assay = enzyme activity, inhibitor, progress curve kinetics; quantity = dissociation rate constant; value = 0.88 h⁻¹
Structure (SMILES) = COC1CCC(N(C(=O)C2CCC(C)CC2)c2cc(C3=CCCCC3)sc2C(=O)O)CC1 (stereo not shown); target = Probable UDP-N-acetylglucosamine--peptide N-acetylglucosaminyltransferase SPINDLY, 3 TPR truncation (SPY, Arabidopsis thaliana, UniProt Q96301); assay = inhibitor; setting = 3 to 100 µM, 90 min, together with: GDP-fucose 50 µM; quantity = O-fucosylation; value = inhibited
